Published values gathered from unrelated publications.
Each line is one published result; not all experiments were run side by side.
HDAC1: Histone deacetylase 1 (HDAC1, Homo sapiens, UniProt Q13547)
Sequence of UniProt Q13547 (whole entry, looked up): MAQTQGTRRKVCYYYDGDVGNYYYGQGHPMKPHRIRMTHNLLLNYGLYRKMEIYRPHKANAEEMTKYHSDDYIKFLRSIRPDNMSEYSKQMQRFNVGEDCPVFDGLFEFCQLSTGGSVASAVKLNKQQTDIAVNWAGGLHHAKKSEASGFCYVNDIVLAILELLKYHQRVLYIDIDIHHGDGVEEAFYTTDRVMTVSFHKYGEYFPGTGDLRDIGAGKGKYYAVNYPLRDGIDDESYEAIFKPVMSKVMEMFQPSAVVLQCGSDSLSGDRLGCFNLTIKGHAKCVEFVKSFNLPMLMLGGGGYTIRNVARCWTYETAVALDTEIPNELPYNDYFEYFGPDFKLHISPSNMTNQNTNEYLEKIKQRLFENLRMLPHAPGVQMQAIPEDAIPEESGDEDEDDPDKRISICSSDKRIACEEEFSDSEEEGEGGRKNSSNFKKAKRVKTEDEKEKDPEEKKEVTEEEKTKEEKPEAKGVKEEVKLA
PTGS2: Prostaglandin G/H synthase 2 (PTGS2, Homo sapiens, UniProt P35354)
Sequence of UniProt P35354 (whole entry, looked up): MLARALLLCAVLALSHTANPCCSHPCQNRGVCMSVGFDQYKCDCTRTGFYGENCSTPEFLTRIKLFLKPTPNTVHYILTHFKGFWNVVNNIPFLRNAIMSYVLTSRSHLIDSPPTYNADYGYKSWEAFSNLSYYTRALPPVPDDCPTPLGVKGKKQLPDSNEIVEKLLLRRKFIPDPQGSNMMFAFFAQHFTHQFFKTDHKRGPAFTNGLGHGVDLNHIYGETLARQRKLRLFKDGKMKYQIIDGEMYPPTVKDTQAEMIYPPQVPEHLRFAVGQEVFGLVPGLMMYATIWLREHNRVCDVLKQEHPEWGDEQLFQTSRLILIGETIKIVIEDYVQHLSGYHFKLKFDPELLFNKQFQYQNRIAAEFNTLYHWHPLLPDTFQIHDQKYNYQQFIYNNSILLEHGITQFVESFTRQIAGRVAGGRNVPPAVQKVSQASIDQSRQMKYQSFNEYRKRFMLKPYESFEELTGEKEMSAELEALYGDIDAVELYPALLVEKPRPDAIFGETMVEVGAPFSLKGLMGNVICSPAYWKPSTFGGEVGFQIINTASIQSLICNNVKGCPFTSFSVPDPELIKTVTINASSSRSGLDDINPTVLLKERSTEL
KCNA1: Potassium voltage-gated channel subfamily A member 1 (KCNA1, Homo sapiens, UniProt Q09470)
SIRT6: NAD-dependent protein deacylase sirtuin-6 (SIRT6, Homo sapiens, UniProt Q8N6T7)
Sequence of UniProt Q8N6T7 (whole entry, looked up): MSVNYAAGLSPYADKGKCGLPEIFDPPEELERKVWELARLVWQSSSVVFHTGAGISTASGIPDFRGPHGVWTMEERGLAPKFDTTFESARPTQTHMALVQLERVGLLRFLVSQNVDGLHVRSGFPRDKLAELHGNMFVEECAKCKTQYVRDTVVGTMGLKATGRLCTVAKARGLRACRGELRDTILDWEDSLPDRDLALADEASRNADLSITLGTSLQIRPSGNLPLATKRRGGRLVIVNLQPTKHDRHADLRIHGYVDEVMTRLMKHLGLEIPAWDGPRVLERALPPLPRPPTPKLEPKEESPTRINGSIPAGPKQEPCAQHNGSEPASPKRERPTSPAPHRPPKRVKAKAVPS
USP51: Ubiquitin carboxyl-terminal hydrolase 51 (USP51, Homo sapiens, UniProt Q70EK9)
Sequence of UniProt Q70EK9 (whole entry, looked up): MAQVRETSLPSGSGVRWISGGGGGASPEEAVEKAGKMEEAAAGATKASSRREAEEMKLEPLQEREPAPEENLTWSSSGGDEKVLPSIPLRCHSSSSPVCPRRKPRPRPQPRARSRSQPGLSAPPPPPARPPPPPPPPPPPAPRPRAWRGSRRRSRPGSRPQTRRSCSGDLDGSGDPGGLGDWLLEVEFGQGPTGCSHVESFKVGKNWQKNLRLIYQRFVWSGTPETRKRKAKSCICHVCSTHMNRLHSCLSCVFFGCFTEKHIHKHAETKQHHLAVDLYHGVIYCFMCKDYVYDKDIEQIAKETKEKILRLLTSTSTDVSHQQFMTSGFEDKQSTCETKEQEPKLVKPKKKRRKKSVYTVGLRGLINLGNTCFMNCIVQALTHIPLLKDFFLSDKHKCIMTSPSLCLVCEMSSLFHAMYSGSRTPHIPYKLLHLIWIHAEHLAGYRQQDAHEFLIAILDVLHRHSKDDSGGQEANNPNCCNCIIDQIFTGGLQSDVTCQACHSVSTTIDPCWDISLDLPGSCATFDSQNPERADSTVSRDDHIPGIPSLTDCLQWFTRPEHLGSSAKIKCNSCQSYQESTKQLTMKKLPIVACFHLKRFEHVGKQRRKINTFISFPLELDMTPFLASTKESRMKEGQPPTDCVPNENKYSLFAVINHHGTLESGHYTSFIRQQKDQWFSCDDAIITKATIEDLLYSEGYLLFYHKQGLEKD
SLC6A4: Sodium-dependent serotonin transporter (SLC6A4, Homo sapiens, UniProt P31645)
Sequence of UniProt P31645 (whole entry, looked up): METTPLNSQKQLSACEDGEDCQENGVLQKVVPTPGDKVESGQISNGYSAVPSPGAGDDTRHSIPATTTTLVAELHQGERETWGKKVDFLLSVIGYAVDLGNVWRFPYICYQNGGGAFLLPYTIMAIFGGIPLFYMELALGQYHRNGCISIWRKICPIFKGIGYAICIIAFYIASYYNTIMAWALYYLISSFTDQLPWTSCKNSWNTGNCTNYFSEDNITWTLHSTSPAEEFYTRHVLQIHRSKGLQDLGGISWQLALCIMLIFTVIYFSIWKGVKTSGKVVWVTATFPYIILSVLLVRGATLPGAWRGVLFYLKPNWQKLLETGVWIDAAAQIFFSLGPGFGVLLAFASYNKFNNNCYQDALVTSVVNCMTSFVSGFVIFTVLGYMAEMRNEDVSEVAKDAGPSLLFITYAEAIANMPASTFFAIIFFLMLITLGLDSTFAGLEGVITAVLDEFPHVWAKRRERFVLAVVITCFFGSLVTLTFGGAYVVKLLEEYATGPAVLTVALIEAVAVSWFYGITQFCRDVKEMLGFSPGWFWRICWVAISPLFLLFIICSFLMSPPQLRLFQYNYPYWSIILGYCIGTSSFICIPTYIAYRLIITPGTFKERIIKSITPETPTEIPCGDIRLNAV
PDE10A: cAMP and cAMP-inhibited cGMP 3',5'-cyclic phosphodiesterase 10A (PDE10A, Homo sapiens, UniProt Q9Y233)
Sequence of UniProt Q9Y233 (whole entry, looked up): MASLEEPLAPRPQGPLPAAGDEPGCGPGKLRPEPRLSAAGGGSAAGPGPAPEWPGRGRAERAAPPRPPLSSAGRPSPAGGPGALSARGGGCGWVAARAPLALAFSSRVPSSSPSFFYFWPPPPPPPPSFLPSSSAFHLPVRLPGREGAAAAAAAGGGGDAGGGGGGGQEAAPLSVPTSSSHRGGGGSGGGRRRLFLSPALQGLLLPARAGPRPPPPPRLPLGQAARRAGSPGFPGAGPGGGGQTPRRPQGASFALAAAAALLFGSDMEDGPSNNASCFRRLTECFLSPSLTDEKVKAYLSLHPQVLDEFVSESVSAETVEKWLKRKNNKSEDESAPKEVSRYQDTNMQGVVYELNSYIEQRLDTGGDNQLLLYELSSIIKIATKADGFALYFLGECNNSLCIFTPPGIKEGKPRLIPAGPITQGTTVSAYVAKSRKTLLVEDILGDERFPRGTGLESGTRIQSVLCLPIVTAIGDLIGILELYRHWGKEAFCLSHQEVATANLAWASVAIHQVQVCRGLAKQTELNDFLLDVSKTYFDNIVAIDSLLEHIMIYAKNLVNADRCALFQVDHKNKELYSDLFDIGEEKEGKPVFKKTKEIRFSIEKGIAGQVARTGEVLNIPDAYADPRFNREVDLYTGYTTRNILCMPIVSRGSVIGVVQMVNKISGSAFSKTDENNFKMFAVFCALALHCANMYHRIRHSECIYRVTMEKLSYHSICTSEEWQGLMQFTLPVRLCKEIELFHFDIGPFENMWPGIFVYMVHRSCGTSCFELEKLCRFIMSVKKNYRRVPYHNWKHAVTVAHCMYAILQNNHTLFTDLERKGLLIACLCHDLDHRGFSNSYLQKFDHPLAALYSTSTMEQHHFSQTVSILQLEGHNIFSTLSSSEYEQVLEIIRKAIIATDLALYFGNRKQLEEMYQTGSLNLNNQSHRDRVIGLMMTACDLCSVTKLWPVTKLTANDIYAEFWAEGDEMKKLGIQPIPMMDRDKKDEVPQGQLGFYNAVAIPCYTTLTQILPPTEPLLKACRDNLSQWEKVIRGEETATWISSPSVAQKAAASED
HDAC6: Protein deacetylase HDAC6 (HDAC6, Homo sapiens, UniProt Q9UBN7)
Sequence of UniProt Q9UBN7 (whole entry, looked up): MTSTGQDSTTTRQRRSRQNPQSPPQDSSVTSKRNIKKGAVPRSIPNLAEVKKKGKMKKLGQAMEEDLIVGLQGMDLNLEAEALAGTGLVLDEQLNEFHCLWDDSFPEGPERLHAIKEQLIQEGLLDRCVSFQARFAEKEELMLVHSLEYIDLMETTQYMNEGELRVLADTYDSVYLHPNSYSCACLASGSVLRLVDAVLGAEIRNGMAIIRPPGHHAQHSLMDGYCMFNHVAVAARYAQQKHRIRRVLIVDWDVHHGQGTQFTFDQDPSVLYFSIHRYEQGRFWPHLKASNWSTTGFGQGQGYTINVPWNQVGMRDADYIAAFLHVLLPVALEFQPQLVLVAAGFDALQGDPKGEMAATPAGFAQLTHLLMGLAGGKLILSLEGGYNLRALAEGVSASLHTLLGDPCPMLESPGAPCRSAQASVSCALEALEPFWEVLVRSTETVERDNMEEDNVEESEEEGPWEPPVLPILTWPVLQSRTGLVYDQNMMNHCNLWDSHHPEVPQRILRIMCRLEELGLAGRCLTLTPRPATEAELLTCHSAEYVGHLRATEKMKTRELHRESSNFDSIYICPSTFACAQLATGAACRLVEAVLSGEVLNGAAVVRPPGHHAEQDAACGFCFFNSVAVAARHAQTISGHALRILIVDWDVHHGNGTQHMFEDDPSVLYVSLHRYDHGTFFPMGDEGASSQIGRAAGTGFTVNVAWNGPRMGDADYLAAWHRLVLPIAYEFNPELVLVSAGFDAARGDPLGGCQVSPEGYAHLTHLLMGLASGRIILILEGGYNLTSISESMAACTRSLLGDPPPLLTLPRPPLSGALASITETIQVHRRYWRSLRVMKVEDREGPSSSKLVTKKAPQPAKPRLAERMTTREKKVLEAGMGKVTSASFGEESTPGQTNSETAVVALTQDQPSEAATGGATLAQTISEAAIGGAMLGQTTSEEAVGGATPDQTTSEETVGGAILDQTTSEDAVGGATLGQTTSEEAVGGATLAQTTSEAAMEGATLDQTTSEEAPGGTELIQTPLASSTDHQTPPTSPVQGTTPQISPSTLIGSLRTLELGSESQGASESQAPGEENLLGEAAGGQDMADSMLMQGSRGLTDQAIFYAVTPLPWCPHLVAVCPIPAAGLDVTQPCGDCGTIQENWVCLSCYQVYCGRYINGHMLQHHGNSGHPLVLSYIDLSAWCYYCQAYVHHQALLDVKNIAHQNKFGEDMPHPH

| Compound | target | assay | conditions | inhibition [%] |
| --- | --- | --- | --- | --- |
| Cc1cc(OS(=O)(=O)Oc2cccc(C(C)C)c2)cc(C(=O)NO)c1 | HDAC1 | enzyme activity, inhibitor, fluorescence | 10 µM | 11 |
| COc1cc(-c2cc(C(C)=O)n3ccccc23)cc(OC)c1Cn1ccnc1 | Bromodomain-containing protein 9 (BRD9, Homo sapiens, UniProt Q9H8M2) | protein-protein interaction, inhibitor, AlphaScreen | 1 µM | 96.9 |
| COc1cc([C@H]2OC[C@H]3[C@@H]2CO[C@@H]3c2cc(OC)c(O)c(OC)c2)cc(OC)c1O | PTGS2 | enzyme activity, inhibitor | 3.9 µg/mL | 75.3 |
| O=C(NO)c1cccc(OS(=O)(=O)Oc2cccc(-c3ccccc3)c2)c1 | HDAC1 | enzyme activity, inhibitor, fluorescence | 10 µM | 59 |
| CCCN1C[C@H](CSC)C[C@@H]2c3cccc4[nH]cc(c34)C[C@H]21 | KCNA1 | ion current, inhibitor, patch clamp | 3 µM | 12 |
| C=C[C@@]1(C)C=C2CC[C@@H]3[C@](C)(CCC[C@@]3(C)C(=O)O)[C@H]2CC1 | PTGS2 | enzyme activity, inhibitor | 31.25 µg/mL | 100 |
| CC[C@H](C)[C@H](NC(=O)[C@H](CCC(N)=O)NC(=O)[C@@H](NC(=O)[C@H](CCSC)NC(=O)[C@H](CCCCN)NC(=O)[C@H](CO)NC(=O)[C@@H](NC(=O)[C@H](CCSC)NC(=O)[C@H](CC(C)C)NC(=O)[C@H](CC(N)=O)NC(=O)[C@@H](NC(=O)[C@@H](NC(=O)[C@H](CO)NC(=O)[C@H](CC(C)C)NC(=O)[C@H](C)NC(=O)[C@H](CCCNC(=N)N)NC(=O)[C@H](CCC(=O)O)NC(=O)[C@H](Cc1ccc(O)cc1)NC(=O)[C@H](Cc1ccccc1)NC(=O)[C@H](C)NC(=O)[C@H](CC(N)=O)NC(=O)[C@@H](N)CCCCN)[C@@H](C)CC)[C@@H](C)CC)[C@@H](C)O)C(C)C)C(=O)N[C@@H](CC(N)=O)C(=O)N[C@H](C(=O)O)C(C)C | Glycogen synthase kinase-3 beta (GSK3B, Homo sapiens, UniProt P49841) | enzyme activity, inhibitor, radiometric | 10 µM | -3 |
| NC(=O)c1ccc(C(=O)NOCc2ccc(Nc3ccccc3)cc2)cc1 | SIRT6 | enzyme activity, inhibitor, fluorescence | 100 µM | 79.2 |
| COc1cc(-c2cc(=O)c3c(O)cc(O)cc3o2)ccc1O | PTGS2 | enzyme activity, inhibitor | 3.9 µg/mL | 31.1 |
| Cc1cc(OS(=O)(=O)Oc2ccc3ccccc3c2)cc(C(=O)NO)c1 | HDAC1 | enzyme activity, inhibitor, fluorescence | 5 µM | 7 |
| CC(C)OCCn1c(=S)[nH]c(=O)c2[nH]ccc21 | Myeloperoxidase (MPO, Homo sapiens, UniProt P05164) | enzyme activity, inhibitor, fluorescence | 0.5556 µM | 93.9 |
| CCc1nn(C)c2nc(-c3ccc(C(=O)O)cc3)nc(NCc3ccc(F)cc3)c12 | cGMP-inhibited 3',5'-cyclic phosphodiesterase 3A (PDE3A, Homo sapiens, UniProt Q14432) | enzyme activity, inhibitor, radiometric | 10 µM | 27.4 |
| COC(=O)c1ccc(O)cc1 | PTGS2 | enzyme activity, inhibitor | 0.12 µg/mL | 0 |
| COc1ccc([C@H]2OC[C@H]3[C@@H]2CO[C@H]3c2ccc(O[C@@H]3O[C@H](CO)[C@@H](O)[C@H](O)[C@H]3O)c(OC)c2)cc1OC | USP51 | enzyme activity, inhibitor | 5 µM | 26 |
| S=C(NN=Cc1ccc(N2CCCCC2)cc1)Nc1ccc(Cl)cc1 | Dihydrofolate reductase (DHFR, Homo sapiens, UniProt P00374) | enzyme activity, inhibitor | 500 µM | 90.2 |
| CCOC(=O)C12CC1C(n1ccc3c(NCCCc4ccccc4)nc(C#Cc4ccc(Cl)s4)nc31)C(O)C2O (centres unmarked) | SLC6A4 | ligand displacement, radioligand | 10 µM | -15 |
| O=C1Nc2ccccc2/C1=C1/Nc2ccccc2C1=O | USP51 | enzyme activity, inhibitor | 5 µM | 9 |
| COc1cc2ccnc(Cc3cccc4ccccc34)c2cc1OC | PDE10A | enzyme activity, inhibitor, FP | 0.1 µM | 18 |
| O=c1cc(-c2ccc(O)cc2)oc2cc(O)cc(O)c12 | PTGS2 | enzyme activity, inhibitor | 7.81 µg/mL | 72.2 |
| O=c1ccc2ccccc2o1 | USP51 | enzyme activity, inhibitor | 5 µM | 32 |
| CC[C@H](C)[C@H](NC(=O)[C@H](CCC(N)=O)NC(=O)[C@H](CC(C)C)NC(=O)[C@H](CCSC)NC(=O)[C@H](CCCCN)NC(=O)[C@H](CO)NC(=O)[C@H](CO)NC(=O)[C@H](CCSC)NC(=O)[C@H](CC(C)C)NC(=O)[C@H](CC(N)=O)NC(=O)[C@@H](NC(=O)[C@@H](NC(=O)[C@H](CO)NC(=O)[C@H](CC(C)C)NC(=O)[C@H](CS)NC(=O)[C@H](CCCNC(=N)N)NC(=O)[C@H](CC(=O)O)NC(=O)[C@H](Cc1c[nH]c2ccccc12)NC(=O)[C@H](Cc1ccccc1)NC(=O)[C@H](C)NC(=O)[C@H](CCC(=O)O)NC(=O)[C@@H](N)CCCCN)C(C)C)[C@@H](C)CC)C(=O)N[C@@H](CC(N)=O)C(=O)N[C@@H](C)C(=O)O | Cyclin-dependent kinase 5, with p35 (CDK5, Homo sapiens, UniProt Q00535) | enzyme activity, inhibitor, radiometric | 10 µM | 2 |

| Compound | target | assay | conditions | inhibition [%] |
| --- | --- | --- | --- | --- |
| O=C(NO)c1cccc(OS(=O)(=O)Oc2ccc(-c3cccc(C(F)(F)F)c3)cc2)c1 | HDAC1 | enzyme activity, inhibitor, fluorescence | 10 µM | 47 |
| Cc1ncc(CO)c(CO)c1O | USP51 | enzyme activity, inhibitor | 5 µM | 30 |
| Nc1c(Br)cc(Br)cc1CN[C@H]1CC[C@H](O)CC1 | KCNA1 | ion current, inhibitor, patch clamp | 10 µM | 0.595 |
| Cc1cc(OS(=O)(=O)Oc2ccc(C(F)(F)F)cc2)cc(C(=O)NO)c1 | HDAC6 | enzyme activity, inhibitor, fluorescence | 10 µM | 45 |
| CC[C@]1(O)C[C@H]2CN(CCc3c([nH]c4ccccc34)[C@@](C(=O)OC)(c3cc4c(cc3OC)N(C=O)[C@H]3[C@@](O)(C(=O)OC)[C@H](OC(C)=O)[C@]5(CC)C=CCN6CC[C@]43[C@@H]65)C2)C1 | USP51 | enzyme activity, inhibitor | 5 µM | 32 |
| C#Cc1cc(-c2cc(Nc3nc(N[C@@H](C)c4ccc(F)cn4)ncc3Cl)n[nH]2)ccc1C=O | Ribosomal protein S6 kinase alpha-5 (RPS6KA5, Homo sapiens, UniProt O75582) | enzyme activity, inhibitor | 0.2 µM | 43.5 |
| COc1ccc2nccc(Cc3cccc(-c4ccc(C5COC5)cc4)c3)c2c1 | PDE10A | enzyme activity, inhibitor, FP | 0.1 µM | 14 |
| CC(C)=CCC[C@](C)(O[C@@H]1O[C@H](CO)[C@@H](O)[C@H](O)[C@H]1O)[C@H]1CC[C@]2(C)[C@@H]1[C@H](O)C[C@@H]1[C@@]3(C)CC[C@H](O)C(C)(C)[C@@H]3[C@@H](O[C@@H]3O[C@H](CO)[C@@H](O)[C@H](O)[C@H]3O[C@@H]3O[C@@H](C)[C@H](O)[C@@H](O)[C@H]3O)C[C@]12C | USP51 | enzyme activity, inhibitor | 5 µM | 0 |
| Cc1cc(C)c(OS(=O)(=O)Oc2cccc(C(=O)NO)c2)c(C)c1 | HDAC1 | enzyme activity, inhibitor, fluorescence | 10 µM | 28 |
| CN1CC(Oc2cnc(C#N)cc2-c2ccn3nc(NC(=O)C4CC4)cc3c2)C1 | LIM domain kinase 1 (LIMK1, Homo sapiens, UniProt P53667) | enzyme activity, inhibitor | 1 µM | 5 |
| COc1ccc(Cc2nccc3ccc(C4COC4)cc23)cc1OC | PDE10A | enzyme activity, inhibitor, FP | 0.1 µM | 4 |
| C[N+](C)(C)CC(=O)O | USP51 | enzyme activity, inhibitor | 5 µM | 29 |
| Cc1c(OS(=O)(=O)Oc2ccccc2)cccc1C(=O)NO | HDAC6 | enzyme activity, inhibitor, fluorescence | 10 µM | 40 |
| COc1cc(/C=C/C(=O)CC(=O)/C=C/c2ccc(O)c(OC)c2)ccc1O | USP51 | enzyme activity, inhibitor | 5 µM | 0 |
| Nc1ccc(C(=O)NOCc2ccccc2)cc1 | SIRT6 | enzyme activity, inhibitor, fluorescence | 100 µM | 23 |
| CC(C)c1[nH]c2nc(N)nn2c(=O)c1Cc1cccc(Cl)c1Cl | C-C chemokine receptor type 5 (CCR5, Homo sapiens, UniProt P51681) | β-arrestin recruitment, antagonist | 1 µM | 85 |
| N#C[C@@]12C[C@@H]1[C@@H](n1cnc3c(Nc4ccc(Cl)c(Cl)c4)nc(I)nc31)[C@H](O)[C@@H]2O | SLC6A4 | ligand displacement, radioligand | 10 µM | 10 |
| NC/C(=C\F)COc1cccc(Cn2c(=S)[nH]c(=O)c3[nH]cnc32)c1 | Endothelin-1 receptor (EDNRA, Homo sapiens, UniProt P25101) | ligand displacement, radioligand | 10 µM | < 50 |
| O=C1NC(=O)C(c2ccccc2)(c2ccccc2)N1 | Sodium channel protein type 1 subunit alpha (SCN1A, Homo sapiens, UniProt P35498) | ion current, inhibitor, patch clamp | 30 µM | 12.5 |
| NC(=O)c1ccc(C(=O)NOCc2ccc(F)cc2)cc1 | SIRT6 | enzyme activity, inhibitor, fluorescence | 100 µM | 73.7 |

Some of these lines once more:
| Compound | target | assay | conditions | inhibition [%] |
| --- | --- | --- | --- | --- |
| Cc1cc(C)c(OS(=O)(=O)Oc2cccc(C(=O)NO)c2)c(C)c1 | HDAC1 | enzyme activity, inhibitor, fluorescence | 10 µM | 28 |
| CN1CC(Oc2cnc(C#N)cc2-c2ccn3nc(NC(=O)C4CC4)cc3c2)C1 | LIM domain kinase 1 (LIMK1, Homo sapiens, UniProt P53667) | enzyme activity, inhibitor | 1 µM | 5 |
| COc1ccc(Cc2nccc3ccc(C4COC4)cc23)cc1OC | PDE10A | enzyme activity, inhibitor, FP | 0.1 µM | 4 |
| C[N+](C)(C)CC(=O)O | USP51 | enzyme activity, inhibitor | 5 µM | 29 |
| Cc1c(OS(=O)(=O)Oc2ccccc2)cccc1C(=O)NO | HDAC6 | enzyme activity, inhibitor, fluorescence | 10 µM | 40 |
